Assay results gathered from unrelated publications.
Numbers after ± are the reported error.

The IC50 of `C[C@H](Nc1ccc2c(c1)OCCn1cc(N3C(=O)OC[C@H]3C(F)F)nc1-2)C(N)=O` is reported as 0.0024 µM (NCI-H1048; growth rate inhibition, CellTiter-Glo; 120 h).
For `CCOC(=O)[C@H](CCc1ccccc1)N[C@H]1CCc2ccccc2N(CC(=O)O)C1=O`, the inhibition was 55.1% (Nedd8-cullin1 interaction; neddylation, AlphaScreen; 100 µM).
The IC50 of `O=C(c1c(F)ccc(NS(=O)(=O)N2CC[C@@H](F)C2)c1F)c1c[nH]c2ncc(-c3cnc(C4CC4)nc3)cc12` is reported as over 30 µM (SK-MEL-2 (NRAS Q61R); ERK phosphorylation, Western blot; 1 h).
With `CCCCN1C[C@H](O)[C@@H](O)[C@@H](O)[C@H]1CO` the IC50 was 14.7 µM (sample H patient fibroblasts; Gb3 level lowering, LC-MS/MS, refers to: Gb3 d18:1/24:0; 216 h).
`CCCCC(=O)N(Cc1ccc(-c2ccccc2-c2nnn[nH]2)cc1)[C@H](C(=O)O)C(C)C` has an IC50 of over 60 µM (human skeletal muscle cells; BCKD phosphorylation, AlphaLISA).
`CN(c1ccc(NC(=O)c2ccc(C(=N)N)cc2)cc1OCc1ccc(C(F)(F)F)cc1)S(=O)(=O)C(F)(F)F` gave an IC50 of over 500 µM (RAW264.7; cell growth, MTT; 48 h).
With `CCn1cc(-c2cc(Cn3ccoc3=N)cc3c2CCN([C@@H](C)c2cc(OC)ccn2)C3=O)c(C(F)(F)F)n1` the EC50 was 4.99 µM (COLO 201; cell growth, inhibitor; 120 h).
For `CC(=O)c1c(O)c(C)c(O)c2c1OC1=CC(=O)C(C(C)=O)C(=O)C12C` (single isomer, unassigned; (+)), the IC50 was 26 µM (hepatocytes, iPSC-derived, W2 line; cell viability; 24 h).
`Cc1ccc(C(=O)c2cc(O)c(O)c([N+](=O)[O-])c2)cc1` gave an IC50 of 0.711 µM (HD-MB03; cell growth; 168 h, DMSO).
For `CN(c1ccc(NC(=O)c2cccc(C(=N)N)c2)cc1OCc1ccc(C(=N)N)cc1)S(=O)(=O)Cc1ccccc1`, the IC50 was over 500 µM (RAW264.7; cell growth, MTT; 48 h).
The IC50 of `Cc1c(C)c2c(c(C)c1O)CCC(C)(COc1ccc(CC3SC(=O)NC3=O)cc1)O2` (stereo not drawn) is reported as 40 µM (iPSC-derived hepatocytes B3; cell viability; 24 h, differentiation day 23).
`CCn1ncc2c1-c1cnc(N)c(c1)O[C@H](C)c1cc(F)ccc1-c1nn(C)nc1C2` has an IC50 of 0.0022 µM (NCI-H2228, EML4-ALK v3; cell viability).
The IC50 of `Nc1cc(C(F)(F)F)c(-c2nc(N3CCOCC3)nc(N3CCOCC3)n2)cn1` is reported as 0.701 µM (HD-MB03; cell growth; 168 h, DMSO).
For `N=C(N)Nc1ccc(C(=O)Oc2ccc3[nH]c4ccccc4c3c2)cc1`, the IC50 was 5.24 µM (rat vascular smooth muscle cells; cell proliferation, MTT; added: PDGF-BB).
With `CCC(=O)N1CCN(c2ccc(-n3c(=O)ccc4cnc5ccc(-c6cnc7ccccc7c6)cc5c43)cc2C(F)(F)F)CC1` the IC50 was 0.0489 µM (HD-MB03; cell growth; 168 h, DMSO).
`Nc1nc(N)c2nc(CNc3cccc4ccccc34)cnc2n1` gave an IC50 of 33.1 µM (786-O; mitochondrial toxicity, MitoTracker Red imaging).
For `NC(=O)NO`, the IC50 was 84 ± 2.8 µM (mouse MDSCs differentiated in vitro; M-MDSC frequency, flow cytometry).
With `CC(C)C(=O)Nc1ccc([N+](=O)[O-])c(C(F)(F)F)c1` the IC50 was 31 ± 6.6 µM (THLE-2 cells, Ad-Null transduced; cell viability; no enzyme control).
`C=C(F)C(=O)N1CCN(c2nc(OC[C@@H]3CCCN3C)nc3c2CCN(c2cccc4cccc(Cl)c24)C3)C[C@@H]1CC#N` gave an IC50 of over 1 µM (BXPC-3; cell viability, 3D CellTiter-Glo).
`COc1ccc(COc2cc3oc(=O)c4cc(C(C)O)ccc4c3cc2OC)cc1` (stereo not drawn): IC50 “inactive” (HD-MB03; 168 h).
The IC50 of `Cc1cc(Nc2ncc(Cl)c(Nc3ccccc3S(=O)(=O)C(C)C)n2)c(OC(C)C)cc1C1CCNCC1` is reported as 0.0353 µM (NCI-H3122 (EML4-ALK variant 1); cell viability).
`CON(C)C(=O)N1N=C(c2cc(F)ccc2F)S[C@@]1(CCCN)c1ccccc1` gave an IC50 of 0.00453 µM (HD-MB03; cell growth; 168 h, DMSO).
The IC50 of `CCN(CCO)CCCC(C)Nc1ccnc2cc(Cl)ccc12` (stereo not drawn) is reported as 2.3 ± 0.9 µM (human PBMC; IFN-driven gene expression, inhibitor, qRT-PCR, refers to: IFI6 mRNA; two donors, added: ssRNA).
With `COc1cc(N2CCC(N3CCN(C)CC3)CC2)ccc1Nc1ncc(Cl)c(Nc2ccccc2P(C)(C)=O)n1` the IC50 was 0.0213 µM (NCI-H3122 (EML4-ALK variant 1); cell viability).
`O=C(O)COCC(=O)O` gave an IC50 of 7890 µM (iPSC-derived hepatocytes B3; cell viability; 48 h, differentiation day 23).
`Cc1cc(Nc2ncc(Cl)c(Nc3ccccc3S(=O)(=O)C(C)C)n2)c(OC(C)C)cc1C1CCNCC1` has an IC50 of 0.36 ± 0.06 µM (Rh3 (alveolar rhabdomyosarcoma); cell growth; 3 days).
For `CCCCc1nc(C)c(CC(=S)N(C)C)c(=O)n1Cc1ccc(-c2ccccc2-c2nnn[nH]2)cc1`, the IC50 was over 60 µM (human skeletal muscle cells; BCKD phosphorylation, AlphaLISA).
`COc1cccc2c1C(=O)c1c(O)c3c(c(O)c1C2=O)C[C@@](O)(C(=O)CO)C[C@@H]3O[C@H]1C[C@H](N)[C@H](O)[C@H](C)O1` has an IC50 of 0.147 ± 0.023 µM (HeLa untransduced; cell viability; 48 h).
`Cc1nc(NC(=O)N2CCC[C@H]2C(N)=O)sc1-c1ccnc(C(C)(C)C(F)(F)F)c1` has an IC50 of 1.23 µM (NCI-H1048; growth rate inhibition, CellTiter-Glo; 120 h).
`COC(=O)C1=C(C)NC(C)=C(C(=O)OCCN2CCN(C(c3ccccc3)c3ccccc3)CC2)C1c1cccc([N+](=O)[O-])c1.Cl.Cl` (stereo not drawn) has an inhibition of 40.8% (Nedd8-cullin1 interaction; neddylation, AlphaScreen; 100 µM).
For `Cc1c(-c2c(-c3ccc(F)o3)sc3ncnc(O[C@H](Cc4ccccc4OCc4ccnn4CC(F)(F)F)C(=O)O)c23)ccc(OCCN2CCN(C)CC2)c1Cl`, the IC50 was 1.25 µM (HD-MB03; cell growth; DMSO).
The IC50 of `Clc1ccc(COc2cncc(-c3cnn(C4CCNCC4)c3)c2)c(Cl)c1` is reported as 9.84 µM (HMC3; nuclear intensity, high-content imaging; geometric mean).
For `CC1(C)CN=C(N2CCN(c3ncnc4sc(CC(F)(F)F)cc34)CC2)S1`, the IC50 was 0.126 µM (HD-MB03; cell growth; single agent).
With `COc1cc2c(Oc3ccc(NC(=O)C4(C(=O)Nc5ccc(F)cc5)CC4)cc3F)ccnc2cc1OCCCN1CCOCC1` the IC50 was 0.49 ± 0.2 µM (Rh3 (alveolar rhabdomyosarcoma); cell growth; 3 days).
For `Nc1ccn([C@@H]2O[C@H](CO)[C@@H](O)C2(F)F)c(=O)n1`, the IC50 was 0.0263 µM (HD-MB03; cell growth; 168 h, single agent).
The IC50 of `CC(=O)OC[C@H]1O[C@@H]([S-])[C@H](OC(C)=O)[C@@H](OC(C)=O)[C@@H]1OC(C)=O.CCP(CC)CC.[Au+]` is reported as 0.5 µM (NCI-H661 HMOX1-GFP high; cell viability, MTT; 48 h).

Some of these lines once more:
With `CCn1cc(-c2cc(Cn3ccoc3=N)cc3c2CCN([C@@H](C)c2cc(OC)ccn2)C3=O)c(C(F)(F)F)n1` the EC50 was 4.99 µM (COLO 201; cell growth, inhibitor; 120 h).
For `CC(=O)c1c(O)c(C)c(O)c2c1OC1=CC(=O)C(C(C)=O)C(=O)C12C` (single isomer, unassigned; (+)), the IC50 was 26 µM (hepatocytes, iPSC-derived, W2 line; cell viability; 24 h).
`Cc1ccc(C(=O)c2cc(O)c(O)c([N+](=O)[O-])c2)cc1` gave an IC50 of 0.711 µM (HD-MB03; cell growth; 168 h, DMSO).
